Assay results pooled from the literature.
Compare with care: the assays were run in different laboratories. ± marks the error that the study gave.

| SMILES | test system | setting | half-life [h] |
| --- | --- | --- | --- |
| Nc1ccc2cc3ccc(N)cc3nc2c1 | male CD-1 mouse, lungs | intravenous, 15 mg/kg | 1.11 |
| CC(c1cncnc1)n1c(=S)[nH]c2ccc(Cl)cc2c1=O (centres unmarked) | mouse, plasma | intravenous | 1.6 |
| C[C@H](O)c1cnc(NS(=O)(=O)c2ccc(Cl)c(Cl)c2)nc1 | hepatocytes, HSD17B13 knockout with AAV control, C57BL/6J mouse, male | 1 µM | > 12.5 |
| Cc1ccccc1C(=O)NN=Cc1ccc(O)c(Br)c1 | mouse C3H/HeN, plasma | intravenous, 0.8 mg/kg | 0.983 |
| N#C[C@@]1(n2ccc(N)nc2=O)O[C@H](CO)[C@@H](O)[C@H]1O | CD-1 mouse, plasma | intravenous, 15 mg/kg | 1.57 |
| Cc1ncc2n1-c1ccc(Cl)cc1C(c1ccccc1F)=NC2 | wild-type mouse, plasma | intravenous, 0.3 mg/kg, 3-day vehicle pretreatment | 0.475 ± 0.0817 |
| CCCCCCCC(=O)N[C@@H](CCCCN)C(=O)N[C@@H](CCCCN)C(=O)N[C@@H](C)C(=O)N[C@@H](CC(C)C)C(=O)N[C@@H](CCCCN)C(=O)N[C@@H](CC(C)C)C(=O)N[C@@H](C)C(=O)N[C@@H](CCCCN)C(=O)N[C@@H](CCCCN)C(=O)N1CCC[C@H]1C(=O)N[C@@H](CC(C)C)C(=O)N[C@@H](CCCCN)C(=O)N[C@@H](CC(C)C)C(=O)N[C@@H](CC(C)C)C(=O)N[C@@H](CCCCN)C(N)=O | mouse ICR CD1 female, whole blood | intravenous bolus, 3 mg/kg | 0.1 ± 0.02 |
| NC(CCl)=NCCC[C@H](NC(=O)c1ccc(-c2ccccc2)cc1)c1nc2ccccc2[nH]1 | C57BL/6 mouse, plasma | 1 mg/kg | 1.75 |
| CC/C(=C(\c1ccccc1)c1ccc(OCCN(C)C)cc1)c1ccccc1 | CD-1 mouse, male, lung | intraperitoneal, 0.3 mg/kg | 4.63 |
| COc1ccc2c(c1)[C@]13CCCC[C@@H]1[C@H](C2)N(C)CC3 | C57BL/6 mouse, plasma | oral | ~1 |
| COc1cc2c(cc1OC)CN(CCc1ccc(NC(=O)c3cccc4c(=O)c5cccc(OC)c5[nH]c34)cc1)CC2 | CD-1 mouse, male, lung | intraperitoneal, 30 mg/kg | 24.5 |
| O=c1c2cc(Cl)c(CO)cc2[nH]c(=S)n1Cc1cncnc1 | mouse, plasma | intravenous | 0.469 |
| COc1cccc2c1CCCC2CCCN1CCN(C2CCCCC2)CC1 (centres unmarked) | CD-1 mouse, male, plasma | intraperitoneal, 10 mg/kg | 7.18 |
| CC(=O)c1c(C)c2cnc(Nc3ccc(C4CCN(CCS(C)(=O)=O)CC4)cn3)nc2n(C2CCCC2)c1=O | nude mouse, MDA-MB-435S xenograft, blood | oral, 100 mg/kg | 4.25 |

A few entries again:
| SMILES | test system | setting | half-life [h] |
| --- | --- | --- | --- |
| Cc1ncc2n1-c1ccc(Cl)cc1C(c1ccccc1F)=NC2 | wild-type mouse, plasma | intravenous, 0.3 mg/kg, 3-day vehicle pretreatment | 0.475 ± 0.0817 |
| COc1ccc2c(c1)[C@]13CCCC[C@@H]1[C@H](C2)N(C)CC3 | C57BL/6 mouse, plasma | oral | ~1 |
